Results pooled from the literature.
Each line is one published result; not all experiments were run side by side.
Target: Mitogen-activated protein kinase kinase kinase 19 (MAP3K19, Homo sapiens, UniProt Q56UN5)

Structure (SMILES) | test | conditions | scale | measurement | value
CNC(=O)C1CCN(c2cc(C)c(F)cc2NC(=O)c2ccc(-c3cc(O)ccc3C)c(C)c2)CC1 | binding, competition with immobilised ligand | 1 µM |  | remaining binding | 91%
C=CC(=O)N1CCCC(n2c(=O)c3ncccc3n(Cc3ccc(Oc4ccccc4)cc3)c2=O)C1 (stereo not drawn) | cell-free assay, competition with immobilised ligand | 1 µM |  | remaining binding | 83%
CCn1cc(C(=O)O)c(=O)c2c(N)c(F)c(NC3CCCCC3)cc21 | kinase activity | 0.1 µM, together with: ATP at Km |  | inhibition | -0.3%
CC(C)=CC1OC(C)(C)C2C=C3C(=O)C(Cl)=CC(O)C3C3C(O)C4OC4C(=O)C132 (stereo not drawn) | cell-free assay, competition with immobilised ligand | 10 µM |  | remaining binding | 8.2%
CNC1C[S+]2CC[S+]3CC[S+](C1)[Ru-4]321([N]=C=S)[n]2c3ccc(OC)cc3c3c4c(c5cc(F)c[n+]1c5c32)C(=O)NC4=O (stereo not drawn) | KinomeScan | 0.1 µM | reference: untreated | remaining binding | 41%
CN1CCN(Cc2ccc(-c3ccc(CO[C@H]4CCC[C@@H]4NC(=O)c4cc(-c5cnn(C)c5)cnc4N)cc3)cc2)CC1 | enzyme activity, inhibitor | 0.1 µM |  | inhibition | -2%
C=CC(=O)N1Cc2nc(-c3cc(-c4cc(Cl)cnc4Cl)c(F)cc3F)n(-c3ccncn3)c2C1 | cell-free assay, inhibitor | 1 µM |  | inhibition | -3%
Nc1ncc2c(n1)-c1c([nH]c3ccc(C4=CCOCC4)cc13)CCC2 | radiometric kinase |  | reference: Kd PI5P4K gamma over Kd target | selectivity ratio | > 31 fold
COc1cc(Nc2nc(C)cc(-c3cnn4nc(OC)ccc34)n2)cc(C(F)(F)F)c1 | binding, competition with immobilised ligand | 1 µM |  | remaining binding | 75%
Cc1cc(NC(=O)[C@H](O)c2cc(F)cc(F)c2)ccc1-c1cnc(N)c(C(=O)NC(C)C)c1 | binding, competition with immobilised ligand | 1 µM |  | remaining binding | 65%
Cc1cnc2nc1Nc1cccc(c1)COC/C=C/COCc1cc(ccc1OCCN1CCOCC1)N2 | binding, competition with immobilised ligand | 0.1 µM |  | remaining binding | 3.7%
Nc1ncc(-c2cc(-c3cnn(CC(F)(F)F)c3)ncc2F)nc1C(=O)NC1CNCC(F)C1 (stereo not drawn) | enzyme activity | 1 µM | reference: DMSO control | remaining activity | 98%

A few entries again:
Structure (SMILES) | test | conditions | scale | measurement | value
CNC(=O)C1CCN(c2cc(C)c(F)cc2NC(=O)c2ccc(-c3cc(O)ccc3C)c(C)c2)CC1 | binding, competition with immobilised ligand | 1 µM |  | remaining binding | 91%
